Published values pooled from the literature.
Protocols differ between the studies behind these lines. ± marks the error that the study gave. In brackets after ≈: the same amount, converted by molar mass.

CC[C@H](C)[C@H](NC(=O)[C@@H](NC(=O)[C@H](CS)NC(=O)[C@H](C)NC(=O)[C@H](CC(N)=O)NC(=O)[C@H](CCCNC(=N)N)NC(=O)[C@H](CCCNC(=N)N)NC(=O)[C@H](CC(N)=O)NC(=O)[C@H](CCCNC(=N)N)NC(=O)[C@H](CCCNC(=N)N)NC(=O)[C@H](C)NC(=O)[C@H](CS)NC(=O)[C@H](CC(C)C)NC(=O)[C@@H](NC(=O)[C@@H](NC(=O)[C@H](CS)NC(=O)[C@H](CCCCN)NC(=O)[C@@H](N)CCCNC(=N)N)C(C)C)[C@@H](C)CC)C(C)C)C(=O)N[C@@H](CC(C)C)C(=O)N[C@@H](CS)C(=O)N[C@@H](CCCNC(=N)N)C(=O)O  single disulfide form (LC-MS; PBS; 0.1 mg/mL): 12%
Oc1ccc2ccccc2c1/N=N/c1ccc(/N=N/c2ccccc2)cc1  measured concentration (rat whole blood extract; 0.5 µg/L, 30 days, -20 °C, long-term storage): 0.51 µg/L
COc1ccc(/C=C/c2ccc(-c3ccc(C)cn3)nc2)cc1  radiative decay rate constant (TCSPC; benzene): 0.71 ns⁻¹
COc1ccc(-c2ccn(CC[C@](C)(C(=O)NO)S(C)(=O)=O)c(=O)c2)c(F)c1  free AUC (CF-1 mouse, female; subcutaneous, 300 mg/kg): 23700 ± 300 ng·h/mL
CCCCCCCC(=O)OC[C@H](NC(=O)[C@H](CO)NC(=O)CN)C(=O)N[C@@H](Cc1ccccc1)C(=O)N[C@@H](CC(C)C)C(=O)N[C@@H](CO)C(=O)N1CCC[C@H]1C(=O)N[C@@H](CCC(=O)O)C(=O)N[C@@H](Cc1cnc[nH]1)C(=O)N[C@@H](CCC(N)=O)C(=O)N[C@@H](CCCNC(=N)N)C(=O)N[C@H](C(=O)N[C@@H](CCC(N)=O)C(=O)N[C@@H](CCC(N)=O)C(=O)N[C@@H](CCCNC(=N)N)C(=O)N[C@@H](CCCCN)C(=O)N[C@@H](CCC(=O)O)C(=O)N[C@@H](CO)C(=O)N[C@@H](CCCCN)C(=O)N[C@@H](CCCCN)C(=O)N1CCC[C@H]1C(=O)N1CCC[C@H]1C(=O)N[C@@H](C)C(=O)N[C@@H](CCCCN)C(=O)N[C@@H](CC(C)C)C(=O)N[C@@H](CCC(N)=O)C(=O)N1CCC[C@H]1C(=O)N[C@@H](CCCNC(=N)N)C(=O)O)C(C)C  thirst score (patients with chronic HFrEF; iv infusion, 0.1 µg/kg/min, 60 min into infusion, scale 1-10, median; direction not given): 4
CC(C)CCCC(C)CCCC(C)CCO[C@@H]1O[C@H](CO)[C@@H](O[C@H]2O[C@H](CO)[C@@H](O)[C@H](O)[C@H]2O)[C@H](O)[C@H]1O (stereo partly shown)  surface tension at induction time (dynamic surface tension; 0.0036 mmol/L): 65.5 mN/m
CC(C)(O)c1ncc([S@](N)(=O)=NC(=O)Nc2c3c(cc4c2CCC4)CCC3)s1  Cmax relative to suspension (healthy human subjects, plasma; oral, 100 mg, fasted, tablet; relative to: crystalline suspension): 78%
CC(=O)N([O-])CCCCCNC(=O)CCC(=O)N([O-])CCCCCNC(=O)CCC(=O)N([O-])CCCCCN.[89Zr+4]  tracer uptake (mouse, bone; 24 h): 0.17 %ID/g
COc1ccc2ccc3c(c2c1)C=[N+]1C2CCCCC2[N+]2=Cc4cccc(OC)c4[O][Au-]21[O]3.F[P-](F)(F)(F)(F)F (stereo not shown)  blood concentration (ICP-MS, measured: gold; mouse; intraperitoneal, 5 mg/kg, 24 h): > 1000 ng/mL
CC12CC(c3ccc(S(C)(=O)=O)cc3)C3=C4CCC(=O)C=C4CCC3C1CCC2(O)C(F)(F)C(F)(F)F (stereo not shown)  AUC(0-tlast), geometric mean (human, plasma; intravenous infusion, 15.7 µg [14C]-labelled, 30 min infusion, microdose 1.5 to 2 h after oral 4 mg): 2.1 ng·h/mL
N#CCc1cccc(Cl)c1-c1ccc2[nH][11c](=O)[nH]c2c1  unchanged tracer fraction (mice, plasma; dose not given, 30 min): 35%
Cc1ccc(NCC(=O)NC2CCC(F)(F)CC2)cc1S(=O)(=O)N1CCOCC1  kinetic solubility (water): > 250 µM
C#CCOc1ccc(/C=C2\SC(=O)N(CC(=O)NCc3ccccc3)C2=O)cc1  Kirkwood-Buff integral G2,3 (inverse Kirkwood-Buff integrals; binary solvent mixture; 298.15 K, mole fraction x1 0.20): -437 cm³/mol
COCC1CN(C2CCN(c3cc(OC)c(Nc4ncc(Br)c(Nc5ccc6c(c5P(C)(C)=O)OCCO6)n4)cc3C)CC2)C1  grade ≥3 treatment-related pneumonia (human patients; oral, dose not given): 3.7%
CC(C)C[C@H](NC(=O)C[C@H](O)[C@H](CC(C)C)NC(=O)[C@H](Cc1c[nH]cn1)NC(=O)CNC(=O)[C@@H](NC(=O)[C@H](C)NC(=O)[C@H](Cc1c[nH]c2ccccc12)NC(=O)[C@H](CCC(N)=O)NC(=O)[C@@H](Cc1ccccc1)NC(=O)CCNC(=O)CCNC(=O)CN1CCN(CC(=O)O)CCN(CC(=O)O)CCN(CC(=O)O)CC1)C(C)C)C(N)=O [lutetium-177 labelled]  absorbed dose (MIRD; mouse PC-3 xenograft, kidneys; intraperitoneal, 50 MBq, with PA): 7.6 Gy
Cc1ccc(OCC(=O)O)cc1  t1/2 (Sprague-Dawley rat, male, plasma; oral gavage, 100 mg/kg of parent drug): 3.29 h
CC(C)[C@H](NC(=O)CNC(=O)[C@H](CCC(N)=O)NC(=O)[C@H](C)N)C(=O)O  volume of distribution (human, both sexes, plasma; intravenous infusion, 45 mg/kg/h, 2 h infusion, geometric mean): 21 L/kg
COC(=O)C1OC(Oc2c(-c3ccccc3)oc3cc(O)c(O)c(O)c3c2=O)C(O)C(O)C1O (stereo not shown)  organ weight (BALB/c mouse, liver; 1 mg/kg): 3.4 ± 0.5 g
Cc1cc2c(cc1C1(c3ncc(C(=O)O)cn3)CC1)C(C)(C)CCC2(C)C  LDL level (Sprague-Dawley rat, male, plasma; oral, 100 mg/kg, 9 h, sesame oil vehicle): 7 ± 2.1 mg/dL
COc1cc(C)c(Cc2ccc(O)cc2)cc1[C@@H]1S[C@H](CO)[C@@H](O)[C@H](O)[C@H]1O  Tmax (Japanese T2DM patients, plasma; 2.5 mg luseogliflozin, day 1, once daily): 3.31 ± 2.53 h
COC(=O)c1ccc(-c2cn(Cc3cc(Cl)ccc3O[11CH3])nn2)cc1  distribution volume (PET, two-tissue compartment model; rhesus monkey, brain Midbrain; dose not given): 0.719 mL/cm³
C#CC1(NC(=O)C(CC(C)(C)F)NC(c2ccc(-c3ccc(S(C)(=O)=O)cc3)cc2)C(F)(F)F)CC1 (stereo not shown)  GSH adduct formation (LC-MS UV trace; aqueous buffer; 23 h, pH 7.5, 37 °C, together with: GSH 5 mM): 0%
CCCCCCCCCCCCCCCC(=O)N[C@@H](CCCCN)C(=O)N[C@H](C(=O)N[C@H](C(=O)N[C@@H](CCCCN)C(=O)N[C@@H](CO)C(=O)O)[C@@H](C)O)[C@@H](C)O  percent of applied dose in epidermis (hairless mouse, skin, Franz cell; 50 µg/cm^2 applied, 24 h): 5.6%
CCCC(CCC(=O)O)NC(=O)c1ccc2c(c1)OCO2 (stereo not shown)  AUC(0-last) ratio (male Sprague-Dawley rats, plasma; oral, 200 mg/kg of parent drug; relative to: 200 over 20 mg/kg dose): 8.95
COc1cc2c(cc1OC)CN(CCCCn1ccc3cc(OCC[18F])ccc31)C2  tracer uptake (male CD-1 mouse, kidney; intravenous, 15 min): 15 %ID/g
C=C(c1cc(F)c(C(=O)O)c(F)c1)c1cc2c(cc1C)C(C)(C)CCC2(C)C  blood cholesterol (Sprague-Dawley rat, male; oral, 100 mg/kg, 3 h, sesame oil vehicle): 95 ± 16.5 mg/dL
COc1ccc(CNC[C@@](O)(COCc2ccc(F)cc2)[C@@H]2CC[C@@H](C)C[C@H]2OCc2ccc(F)cc2)cc1  kinetic solubility (PBS; 2 h, pH 7.4): 172 µM (≈ 92.8 µg/mL)
CCC(=O)N1CC=C(c2cc3c(Nc4cc5ncsc5cc4F)ncnc3s2)CC1  half-life (metabolic stability; human, liver microsomes): 1.65 h
O=Cc1ccc(C2CCCCO2)o1 (stereo not shown)  equilibrium solubility (UV; 40% PEG 400 in water; 48 h, 25 °C): ~13.5 mg/mL
NS(=O)(=O)c1ccc(N2N=C(C(F)(F)F)CC2c2ccc(F)cc2F)cc1 (stereo not shown)  AUC(0-t) (Beagle dog, both sexes, plasma; oral, 1 mg/kg, single dose): 14500 ± 10800 ng·h/mL
O=C([O-])CN1CCN(CC(=O)[O-])CCN(C(CCC(=O)NC(Cc2c[nH]c3ccc(O)cc23)C(=O)NCCc2c[nH]c3ccc(O)cc23)C(=O)O)CCN(CC(=O)[O-])CC1.[Gd+3] (stereo not shown)  slow-phase half-life (ICP-MS; mouse, blood; iv, 0.1 mmol/kg): 0.528 h
COc1ccc2cc(-c3ccc(-c4ccc(C)cn4)nc3)oc2c1  fluorescence quantum yield (organic solvents; together with: quinine bisulfate reference): ≥ 0.69
CCCCCCCC(=O)C(=O)C(O)CO (stereo not shown)  surface tension decrease (aqueous buffer; 1 to 5 mM, pH 7.4): ~17 mN/m
Cn1c(=O)oc2ccc(-c3ccc(CC(C#N)NC(=O)C4CNCCCO4)c(F)c3)cc21 (stereo not shown)  subjects with TEAE (measured: monocyte count increased; human; 60 mg single dose, fasted): 0%
CCCC[C@H](NC(C)=O)C(=O)N[C@H]1CC(=O)NCCCC[C@@H](C(=O)N[C@@H](C(=O)N2CCC[C@@H]2C(N)=O)C(C)C)NC(=O)[C@H](Cc2c[nH]c3ccccc23)NC(=O)[C@H](CCCN=C(N)N)NC(=O)[C@@H](Cc2ccc3ccccc3c2)NC(=O)[C@@H]2CCCN2C1=O  volume of distribution (Beagle dog, both sexes, plasma; subcutaneous, once daily, 2.25 mg/kg, day 28): 4240 ± 415 mL
CCCC[C@H](NC(=O)CNC(=O)CNC(=O)CN1CCN(CC(=O)O)CCN(CC(=O)O)CCN(CC(=O)O)CC1)C(=O)N[C@H]1CC(=O)NCCCC[C@@H](C(N)=O)NC(=O)[C@H](Cc2c[nH]c3ccccc23)NC(=O)[C@H](CCCNC(=N)N)NC(=O)[C@@H](Cc2ccccc2)NC(=O)[C@H](Cc2c[nH]cn2)NC1=O [gallium-67 labelled]  tumour to tissue uptake ratio (C57 mice, female, B16/F1 melanoma, tumour over blood; intravenous, 0.037 MBq, 2 h): 26.2
CCn1c(=O)n(CCO)c(=O)c2c1nc(/C=C/c1ccc(OC)c(OC)c1)n2C  change in AUClast (healthy humans, plasma; oral, 40 mg, together with: rifampin 600 mg/day; relative to: without rifampin): -68%
COC(=O)C(c1ccccc1Cl)N1CCC(SCC(=O)c2cccc(OC)c2)C(=CC(=O)O)C1 (mixture of isomers)  deviation from nominal (HPLC-MS/MS; feline EDTA plasma; 100 ng/mL, 24 h, 4 °C, storage stability): 7%
N=C(N)NCCC[C@@H]1NC(=O)[C@H](Cc2c[nH]c3ccccc23)NC(=O)[C@@H](CC2CCCCC2)NC(=O)[C@@H]2CCCN2C(=O)[C@@H](NC(=O)CCc2ccccc2)CCCNC1=O  beta rate constant (two-compartment model; C57BL/6J mice, plasma; intravenous, 1 mg/kg): 0.04 min⁻¹
CCCC[C@@H]1NC(=O)[C@@H](NC(=O)[C@H](CCC(=O)O)NC(=O)CNC(=O)CN2CCN(CC(=O)O)CCN(CC(=O)O)CCN(CC(=O)O)CC2)CCCCNC(=O)C[C@@H](C(N)=O)NC(=O)[C@H](C(C)C)NC(=O)[C@@H]2CCCN2C(=O)[C@H](CCCNC(=N)N)NC(=O)CNC(=O)[C@H](Cc2c[nH]c3ccccc23)NC(=O)[C@H](CCCNC(=N)N)NC(=O)[C@@H](Cc2ccccc2)NC(=O)[C@H](Cc2c[nH]cn2)NC(=O)[C@H](CCC(=O)O)NC1=O [gallium-67 labelled]  tissue uptake (C57 mice with B16/F1 melanoma, muscle; intravenous, 0.037 MBq, 2 h): 0.04 ± 0.02 %ID/g
COC(=O)c1ccc(/C=N/NS(=O)(=O)c2ccc(OC)c(OC)c2)cc1  chemical stability (buffer; pH 2, 37 °C): unstable
C[Si](C)(C[C@@H](CN)CC(=O)O)C1CC1  performance time (neuromuscular coordination; Wistar rat male; oral, 300 mg/kg, 3 h): 180 s
CCCC(CCC)NC(=O)c1ccc(OC2OC(C(=O)O)C(O)C(O)C2O)c(O)c1 (stereo not shown)  AUC(0-last) ratio (female Sprague-Dawley rats, plasma; oral, 50 mg/kg of parent drug; relative to: 50 over 20 mg/kg dose): 1.27
CC(C)c1cnc(-c2cc(Cl)ccc2F)cc1Nc1ccncc1C(=O)NC(CO)CO  patients with related SAE (measured: intracranial tumour haemorrhage; human patients; oral, dose not given, grade 5): 0%
CN1CCN(c2ccc(Nc3ncc(Cl)c(Nc4ccccc4P(C)(C)=O)n3)cc2Br)CC1  MRT(0-inf) (male Sprague-Dawley rat, plasma; oral, 25 mg/kg): 22.8 h
[11CH3]c1ccc2nc(C3CCC3)n(-c3ccc4[nH]ncc4c3)c2n1  absorbed radiation dose (human male, skin): 1.8 µSv/MBq

Excerpt of the above:
O=C([O-])CN1CCN(CC(=O)[O-])CCN(C(CCC(=O)NC(Cc2c[nH]c3ccc(O)cc23)C(=O)NCCc2c[nH]c3ccc(O)cc23)C(=O)O)CCN(CC(=O)[O-])CC1.[Gd+3] (stereo not shown)  slow-phase half-life (ICP-MS; mouse, blood; iv, 0.1 mmol/kg): 0.528 h
COc1ccc2cc(-c3ccc(-c4ccc(C)cn4)nc3)oc2c1  fluorescence quantum yield (organic solvents; together with: quinine bisulfate reference): ≥ 0.69
CCCCCCCC(=O)C(=O)C(O)CO (stereo not shown)  surface tension decrease (aqueous buffer; 1 to 5 mM, pH 7.4): ~17 mN/m
